Measured values of several laboratories.
Numbers after ± are the reported error.
Tripartite terminase subunit 3 C-terminal nuclease domain: Tripartite terminase subunit 3, C-terminal nuclease domain (Human betaherpesvirus 5, UniProt P16732)
Sequence of UniProt P16732 (whole entry, looked up): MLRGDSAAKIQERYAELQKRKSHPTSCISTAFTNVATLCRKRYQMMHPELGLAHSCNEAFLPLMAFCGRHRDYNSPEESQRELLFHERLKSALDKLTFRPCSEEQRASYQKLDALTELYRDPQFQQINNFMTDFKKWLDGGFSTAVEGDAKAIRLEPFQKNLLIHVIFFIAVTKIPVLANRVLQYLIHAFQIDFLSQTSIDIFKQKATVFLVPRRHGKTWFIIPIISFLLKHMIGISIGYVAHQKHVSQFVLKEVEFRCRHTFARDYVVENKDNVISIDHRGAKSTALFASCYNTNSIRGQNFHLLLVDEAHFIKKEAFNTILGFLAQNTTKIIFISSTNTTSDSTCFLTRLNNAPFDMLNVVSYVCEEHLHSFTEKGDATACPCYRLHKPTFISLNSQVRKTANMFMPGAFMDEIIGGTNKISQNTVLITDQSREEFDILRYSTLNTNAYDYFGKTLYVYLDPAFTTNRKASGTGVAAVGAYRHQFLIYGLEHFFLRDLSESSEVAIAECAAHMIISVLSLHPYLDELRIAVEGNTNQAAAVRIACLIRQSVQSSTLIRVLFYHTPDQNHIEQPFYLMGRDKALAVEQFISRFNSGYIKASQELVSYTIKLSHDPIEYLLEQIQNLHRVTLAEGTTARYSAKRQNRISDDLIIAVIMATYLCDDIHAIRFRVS
DDB1/DCAF12: DDB1/DCAF12 (Homo sapiens, UniProt Q16531+Q5T6F0)
Sequence of UniProt Q5T6F0 (whole entry, looked up): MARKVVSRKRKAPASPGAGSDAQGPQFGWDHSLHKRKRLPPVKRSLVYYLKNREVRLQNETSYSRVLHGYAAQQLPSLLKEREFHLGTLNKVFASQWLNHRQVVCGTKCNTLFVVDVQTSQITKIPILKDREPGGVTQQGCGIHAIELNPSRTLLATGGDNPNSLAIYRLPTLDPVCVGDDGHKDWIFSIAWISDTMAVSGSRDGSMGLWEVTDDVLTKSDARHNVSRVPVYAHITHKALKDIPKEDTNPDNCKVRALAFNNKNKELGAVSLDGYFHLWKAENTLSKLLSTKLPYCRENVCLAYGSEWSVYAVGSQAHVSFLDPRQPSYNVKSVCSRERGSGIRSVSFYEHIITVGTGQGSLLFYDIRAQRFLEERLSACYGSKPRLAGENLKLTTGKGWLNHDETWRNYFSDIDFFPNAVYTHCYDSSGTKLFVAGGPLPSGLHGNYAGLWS
Sequence of UniProt Q16531 (whole entry, looked up): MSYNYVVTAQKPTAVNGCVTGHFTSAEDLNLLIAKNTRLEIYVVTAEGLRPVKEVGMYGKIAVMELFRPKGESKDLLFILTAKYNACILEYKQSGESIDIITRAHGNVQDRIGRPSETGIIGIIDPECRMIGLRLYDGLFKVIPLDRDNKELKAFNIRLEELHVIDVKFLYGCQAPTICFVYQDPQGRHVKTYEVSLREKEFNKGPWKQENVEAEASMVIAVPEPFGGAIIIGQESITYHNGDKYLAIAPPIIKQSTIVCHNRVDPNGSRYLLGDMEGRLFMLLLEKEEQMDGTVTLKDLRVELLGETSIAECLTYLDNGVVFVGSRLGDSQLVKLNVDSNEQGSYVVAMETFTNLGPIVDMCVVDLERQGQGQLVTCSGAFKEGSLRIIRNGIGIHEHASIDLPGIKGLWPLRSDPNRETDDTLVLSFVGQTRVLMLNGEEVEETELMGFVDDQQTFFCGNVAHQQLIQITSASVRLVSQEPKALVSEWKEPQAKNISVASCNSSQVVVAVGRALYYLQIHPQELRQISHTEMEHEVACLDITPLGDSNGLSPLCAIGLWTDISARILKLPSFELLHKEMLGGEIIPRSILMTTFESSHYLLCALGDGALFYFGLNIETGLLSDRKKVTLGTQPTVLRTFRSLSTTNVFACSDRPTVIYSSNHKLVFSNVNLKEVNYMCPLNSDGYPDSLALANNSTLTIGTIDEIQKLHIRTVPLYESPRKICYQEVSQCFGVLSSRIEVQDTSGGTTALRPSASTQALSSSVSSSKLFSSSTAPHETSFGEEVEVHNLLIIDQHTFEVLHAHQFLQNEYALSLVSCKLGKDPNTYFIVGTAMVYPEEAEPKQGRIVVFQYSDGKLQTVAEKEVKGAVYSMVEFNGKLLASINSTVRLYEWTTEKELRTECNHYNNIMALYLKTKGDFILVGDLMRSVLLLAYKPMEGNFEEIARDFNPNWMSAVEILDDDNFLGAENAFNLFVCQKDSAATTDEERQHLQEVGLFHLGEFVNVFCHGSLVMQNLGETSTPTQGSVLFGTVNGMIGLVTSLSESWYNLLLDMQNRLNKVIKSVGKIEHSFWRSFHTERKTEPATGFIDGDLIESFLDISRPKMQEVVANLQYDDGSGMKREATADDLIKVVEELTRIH
Genome polyprotein NS2B-NS3 protease: Genome polyprotein, NS2B-NS3 protease (ZIKV, UniProt A0A024B7W1)
Sequence of UniProt Q96SW2 (whole entry, looked up): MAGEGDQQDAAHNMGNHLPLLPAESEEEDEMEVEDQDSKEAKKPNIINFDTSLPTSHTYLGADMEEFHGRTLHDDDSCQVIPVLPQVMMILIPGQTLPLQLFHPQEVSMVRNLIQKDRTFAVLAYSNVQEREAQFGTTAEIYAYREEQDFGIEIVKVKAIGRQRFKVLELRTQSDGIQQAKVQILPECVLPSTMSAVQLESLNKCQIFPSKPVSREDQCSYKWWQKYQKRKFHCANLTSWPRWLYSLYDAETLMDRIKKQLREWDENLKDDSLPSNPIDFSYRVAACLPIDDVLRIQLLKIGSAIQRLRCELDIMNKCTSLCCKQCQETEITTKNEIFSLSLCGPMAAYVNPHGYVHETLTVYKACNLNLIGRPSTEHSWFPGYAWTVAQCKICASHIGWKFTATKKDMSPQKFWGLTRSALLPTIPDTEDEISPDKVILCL
Sequence of UniProt Q2FDS6 (whole entry, looked up): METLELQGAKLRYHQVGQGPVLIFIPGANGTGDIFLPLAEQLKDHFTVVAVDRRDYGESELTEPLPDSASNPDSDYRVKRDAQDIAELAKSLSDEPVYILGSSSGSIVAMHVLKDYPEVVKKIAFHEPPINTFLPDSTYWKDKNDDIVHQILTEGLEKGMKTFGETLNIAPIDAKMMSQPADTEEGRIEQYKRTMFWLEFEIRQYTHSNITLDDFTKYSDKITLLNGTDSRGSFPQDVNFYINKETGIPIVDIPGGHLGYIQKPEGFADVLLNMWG
Sequence of UniProt P39155 (whole entry, looked up): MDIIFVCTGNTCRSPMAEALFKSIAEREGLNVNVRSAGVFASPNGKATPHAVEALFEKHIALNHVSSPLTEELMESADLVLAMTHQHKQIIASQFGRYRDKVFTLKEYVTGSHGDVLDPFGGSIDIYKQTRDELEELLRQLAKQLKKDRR
Sequence of UniProt P43144 (whole entry, looked up): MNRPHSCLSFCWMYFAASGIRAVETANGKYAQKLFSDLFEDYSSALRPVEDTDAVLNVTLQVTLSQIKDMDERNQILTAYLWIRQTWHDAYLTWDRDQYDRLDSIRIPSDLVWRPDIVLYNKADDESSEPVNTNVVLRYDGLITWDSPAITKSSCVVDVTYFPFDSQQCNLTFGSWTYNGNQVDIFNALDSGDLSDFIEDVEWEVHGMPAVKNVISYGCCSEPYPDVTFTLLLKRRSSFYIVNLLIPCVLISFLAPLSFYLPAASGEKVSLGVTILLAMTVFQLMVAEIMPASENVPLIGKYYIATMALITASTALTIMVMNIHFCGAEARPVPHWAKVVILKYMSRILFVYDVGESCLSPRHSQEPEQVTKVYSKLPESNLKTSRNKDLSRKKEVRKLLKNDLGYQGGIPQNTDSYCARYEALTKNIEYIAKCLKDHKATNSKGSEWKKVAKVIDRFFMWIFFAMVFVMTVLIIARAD
Sequence of UniProt P23975 (whole entry, looked up): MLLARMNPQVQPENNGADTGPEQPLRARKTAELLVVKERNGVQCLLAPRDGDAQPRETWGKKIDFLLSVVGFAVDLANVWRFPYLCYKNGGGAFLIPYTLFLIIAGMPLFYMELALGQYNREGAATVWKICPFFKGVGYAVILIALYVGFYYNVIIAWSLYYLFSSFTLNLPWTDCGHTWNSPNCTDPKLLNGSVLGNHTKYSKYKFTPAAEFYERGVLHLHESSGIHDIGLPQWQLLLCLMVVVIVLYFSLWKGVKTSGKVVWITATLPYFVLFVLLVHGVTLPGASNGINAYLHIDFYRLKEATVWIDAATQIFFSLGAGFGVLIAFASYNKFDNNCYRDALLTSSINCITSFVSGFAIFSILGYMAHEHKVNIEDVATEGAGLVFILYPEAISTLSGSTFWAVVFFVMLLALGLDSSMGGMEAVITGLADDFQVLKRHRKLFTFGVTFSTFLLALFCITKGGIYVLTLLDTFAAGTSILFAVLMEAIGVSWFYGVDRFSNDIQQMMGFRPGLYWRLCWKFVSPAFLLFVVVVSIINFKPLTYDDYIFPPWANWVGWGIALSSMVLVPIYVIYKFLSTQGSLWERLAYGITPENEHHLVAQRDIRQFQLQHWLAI
Sequence of UniProt Q5XG87 (whole entry, looked up): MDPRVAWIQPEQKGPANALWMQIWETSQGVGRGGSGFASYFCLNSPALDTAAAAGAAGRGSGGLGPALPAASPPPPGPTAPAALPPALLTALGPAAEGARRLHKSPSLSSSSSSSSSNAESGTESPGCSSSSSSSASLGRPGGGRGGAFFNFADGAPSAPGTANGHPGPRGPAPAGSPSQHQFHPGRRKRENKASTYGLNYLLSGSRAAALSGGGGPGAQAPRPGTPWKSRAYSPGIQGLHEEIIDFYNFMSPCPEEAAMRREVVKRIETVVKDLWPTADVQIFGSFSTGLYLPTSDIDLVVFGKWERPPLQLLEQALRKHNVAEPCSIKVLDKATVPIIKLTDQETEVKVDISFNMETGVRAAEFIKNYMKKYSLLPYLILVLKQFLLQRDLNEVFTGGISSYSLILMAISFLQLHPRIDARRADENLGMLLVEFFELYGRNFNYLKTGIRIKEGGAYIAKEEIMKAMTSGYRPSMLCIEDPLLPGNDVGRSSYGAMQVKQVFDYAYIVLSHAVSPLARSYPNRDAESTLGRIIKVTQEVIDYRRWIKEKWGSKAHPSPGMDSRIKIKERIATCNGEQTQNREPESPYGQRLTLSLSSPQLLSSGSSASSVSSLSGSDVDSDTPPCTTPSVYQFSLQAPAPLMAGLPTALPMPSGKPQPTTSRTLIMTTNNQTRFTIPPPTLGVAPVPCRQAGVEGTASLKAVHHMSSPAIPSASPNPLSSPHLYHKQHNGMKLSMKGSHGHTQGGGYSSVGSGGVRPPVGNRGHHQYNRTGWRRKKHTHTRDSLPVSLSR

| Structure (SMILES) | target | assay | system | conditions | IC50 |
| --- | --- | --- | --- | --- | --- |
| Cc1sc2c(=O)n(O)c(=O)[nH]c2c1C | Tripartite terminase subunit 3 C-terminal nuclease domain | endonuclease activity, inhibitor | – | with: dsDNA substrate | 0.61 ± 0.05 µM |
| CN(C)C(=O)C(CCN1CCC(O)(c2ccc(Cl)cc2)CC1)(c1ccccc1)c1ccccc1 | Calcium-activated potassium channel subunit alpha-1, with LRRC26 γ1 subunit (KCNMA1, Homo sapiens, UniProt Q12791) | BK channel conductance, inhibitor, inside-out patch clamp | – | BKα/γ1, Vm 100 mV, nominally Ca2+-free | 2.44 ± 0.32 µM |
| CC[C@H](C)[C@H](NC(=O)[C@@H](N)CC(=O)O)C(=O)N[C@@H](CCCNC(=N)N)C(=O)N[C@@H](CCCCN)C(=O)N1CCC[C@H]1C(=O)NCC(=O)N[C@@H](CCC(=O)O)C(=O)N[C@@H](CO)C(=O)N[C@@H](CCC(=O)O)C(=O)N[C@H](C(=O)O)[C@@H](C)O | DDB1/DCAF12 | binding, TR-FRET competition | – | – | 47.2 µM |
| Cc1cc(C)c2sc(NC(=O)c3ccc4c(c3)OCO4)nc2n1 | Genome polyprotein NS2B-NS3 protease | inhibitor | – | – | 19 ± 2 µM |
| COc1cc(Nc2ncc(F)c(Nc3ccc4c(n3)NC(=O)C(C)(C)O4)n2)cc(OC)c1OC | HTR3A (Homo sapiens, UniProt P46098) | – | – | – | > 10 µM |
| CNC(C)Cc1ccc2nsnc2c1 (stereo not drawn) | SLC6A2 (Homo sapiens, UniProt P23975) | – | – | – | 5.6 ± 1.8 µM |
| Cc1sc2[nH]c(=O)n(O)c(=O)c2c1C | Tripartite terminase subunit 3 C-terminal nuclease domain | endonuclease activity, inhibitor | – | with: dsDNA substrate | 1.6 ± 0.09 µM |
| O=C(O)C(=Cc1ccccc1)CC(P(=O)(O)O)P(=O)(O)O | ppk (Escherichia coli, UniProt P0A7B1) | enzyme activity, inhibitor | – | – | 752 µM |
| O=c1c2ccccc2[nH]c(=S)n1-c1ccccc1 | Pancreatic alpha-amylase (Homo sapiens, UniProt P04746) | enzyme activity, inhibitor | – | – | 580 ± 3.54 µM |
| CCC(C(=O)Nc1cc(NC2COC2)ccc1C)n1cc(Br)cc2nc(SCc3ccc(F)cc3)nc1-2 (stereo not drawn) | USP1 (Homo sapiens, UniProt O94782) | enzyme activity | – | – | > 100 µM |
| C[C@H]1COCCN1c1nc(NCc2cccnc2C(F)(F)F)c2cccnc2n1 | human 5-HT1B receptor | – | – | – | > 100 µM |
| [Cu+2] | Protein-arginine-phosphatase (ywlE, Bacillus subtilis, UniProt P39155) | – | – | – | 5.8 ± 0.1 µM |
| C[C@H]1CN(c2n[nH]c3nc(N[C@H]4CC[C@H](NS(=O)(=O)CCC(F)(F)F)CC4)ncc23)CCO1 | Protein Aster-A (Homo sapiens, UniProt Q96CP6) | biochemical | – | – | ≥ 20 µM |
| O=P(O)(O)Oc1cc(OP(=O)(O)O)c(-c2cc(OP(=O)(O)O)c(OP(=O)(O)O)cc2OP(=O)(O)O)cc1OP(=O)(O)O | INPPL1 (Homo sapiens, UniProt O15357) | enzyme activity, inhibitor, malachite green phosphate | – | 5 min, 30 °C, His-tagged enzyme, with: Ins(1,3,4,5)P4 100 µM | 19.5 ± 3.1 µM |
| Nc1c2c(nc3c1C(c1cccc([N+](=O)[O-])c1)c1ccc(OCC(=O)c4ccc(Cl)cc4)cc1O3)CCCC2 (stereo not drawn) | APP (Homo sapiens, UniProt P05067) | Aβ42 self-aggregation, inhibitor, thioflavin T fluorescence | – | – | 2.85 µM |
| CCOP(=S)(OCC)SCS(=O)(=O)CC | ache (Electrophorus electricus, UniProt O42275) | enzyme activity, inhibitor | – | – | 2.9 ± 0.2 µM |
| Nc1ncnc2c1ncn2[C@@H]1O[C@H](C[C@@H](N)CC[C@H](N)C(=O)O)[C@@H](O)[C@H]1O | Genome polyprotein, NS5 methyltransferase domain (Zika virus, UniProt Q32ZE1) | enzyme activity, inhibitor | – | – | 2.93 µM |
| C#CCCCCCCCCn1nc(OC)oc1=O | Uncharacterized hydrolase SAUSA300_2518 (Staphylococcus aureus, UniProt Q2FDS6) | enzyme activity, inhibitor | USA300 | 1 h preincubation, enzyme 0.5 nM, with: 20 µM 4-MU octanoate | 0.187 µM |
| CC[C@H](C)[C@H](NC(=O)[C@@H](N)CC(=O)O)C(=O)N[C@@H](CCCNC(=N)N)C(=O)N[C@@H](CCCCN)C(=O)N1CCC[C@H]1C(=O)NCC(=O)N[C@@H](CCC(=O)O)C(=O)N[C@@H](CO)C(=O)N[C@@H](CCC(=O)O)C(=O)N[C@@H](CCC(N)=O)C(=O)O | DDB1/DCAF12 | binding, TR-FRET competition | – | – | 17.9 µM |
| O=c1[nH]c2sc(-c3ccc(F)cc3)cc2c(=O)n1O | Tripartite terminase subunit 3 C-terminal nuclease domain | endonuclease activity, inhibitor | – | with: dsDNA substrate | 0.8 ± 0.14 µM |
| O=c1c(O)c(-c2cc(O)c(O)c(O)c2)oc2cc(O)cc(O)c12 | Genome polyprotein NS2B-NS3 protease | inhibitor | – | – | 104 µM |
| COCCCOc1cc2c(cc1OC)-c1cc(=O)c(C(=O)O)cn1[C@H](C(C)C)C2 | Terminal nucleotidyltransferase 4A (Homo sapiens, UniProt Q5XG87) | polyadenylation activity, Kinase-Glo ATP depletion | – | 3 h, room temperature, with: ATP 25 µM | 0.093 µM |
| COc1ccc2[nH]c3c(c2c1)CCN(C)CC3 | Nicotinic acetylcholine receptor alpha9/alpha10 (Rattus norvegicus, UniProt P43144+Q9JLB5) | ACh-evoked current, antagonist, two-electrode voltage clamp | Xenopus laevis oocytes | holding potential -80 mV, with: 100 µM acetylcholine | 13 ± 0.7 µM |
| CCOC(=O)C1=C(C)NC(C)=C(C(=O)OC)C1c1cccc([N+](=O)[O-])c1 (stereo not drawn) | Cacna1c (Rattus norvegicus, UniProt P22002) | inhibitor | – | rat, concurrent measurement | 0.00024 µM |
| CC[C@H](C)[C@H](NC(=O)[C@@H](NC(=O)[C@@H](N)CCC(N)=O)C(C)C)C(=O)N[C@H](C(=O)N[C@H](C(=O)NCC(=O)N[C@@H](CC(N)=O)C(=O)O)[C@@H](C)CC)[C@@H](C)O | Protein cereblon, with DDB1 (CRBN, Homo sapiens, UniProt Q96SW2) | binding, ligand, TR-FRET displacement | – | – | 3.43 µM |
| NCCOCC(=O)N1CCCC(C(=O)NCc2nc(-c3ccc(-c4ccc(F)cc4)cc3)cs2)C1 (stereo not drawn) | 20S proteasome (Plasmodium falciparum, UniProt A0A5K1K7U1+Q8I261+Q8IJT1) | – | – | Succ-LLVY-AMC 0.5 µM, with: WLW-vs 3 µM | 0.079 µM |
| COc1ccc(-c2cc3c(C#Cc4cccnc4)c[nH]c3nn2)cc1OC | AAK1 (Homo sapiens, UniProt Q2M2I8) | – | – | – | 0.104 µM |

A few entries again:
| Structure (SMILES) | target | assay | system | conditions | IC50 |
| --- | --- | --- | --- | --- | --- |
| CC[C@H](C)[C@H](NC(=O)[C@@H](N)CC(=O)O)C(=O)N[C@@H](CCCNC(=N)N)C(=O)N[C@@H](CCCCN)C(=O)N1CCC[C@H]1C(=O)NCC(=O)N[C@@H](CCC(=O)O)C(=O)N[C@@H](CO)C(=O)N[C@@H](CCC(=O)O)C(=O)N[C@@H](CCC(N)=O)C(=O)O | DDB1/DCAF12 | binding, TR-FRET competition | – | – | 17.9 µM |
| CC[C@H](C)[C@H](NC(=O)[C@@H](NC(=O)[C@@H](N)CCC(N)=O)C(C)C)C(=O)N[C@H](C(=O)N[C@H](C(=O)NCC(=O)N[C@@H](CC(N)=O)C(=O)O)[C@@H](C)CC)[C@@H](C)O | Protein cereblon, with DDB1 (CRBN, Homo sapiens, UniProt Q96SW2) | binding, ligand, TR-FRET displacement | – | – | 3.43 µM |
| CCOC(=O)C1=C(C)NC(C)=C(C(=O)OC)C1c1cccc([N+](=O)[O-])c1 (stereo not drawn) | Cacna1c (Rattus norvegicus, UniProt P22002) | inhibitor | – | rat, concurrent measurement | 0.00024 µM |
